Assay results from different studies.
“And” joins repeats or separate records; there may be more than shown. ± gives the spread as reported.

Structure (SMILES) | target or system | assay | test system | setting | scale | quantity | value
O=C(NC1CCN(c2ncnc3[nH]cnc23)CC1)c1cccc(NS(=O)(=O)c2ccc(Cl)cc2)c1 | SARS-CoV-2 |  | Wuhan-Hu-1 | 0.03048 µM | reference: untreated infected cells | relative infection | 83.1%
CNC(=O)CC1C(=O)N(C2CCN([C@H]3CC[C@@H](C(C)C)CC3)CC2)c2ccccc21 (stereo partly shown) | nociceptin receptor (human) | BRET |  |  | reference: N/OFQ as unbiased standard, G protein over β-arrestin 2 | bias factor | 0.16
CC#Cc1ccc2c(=O)[nH]nc(Cc3ccc(F)c(C(=O)N4CCN(c5ccc(C#N)cn5)CC4)c3)c2c1 | CT26 | western blot, refers to: STAT1 and pSTAT1 (Tyr701) |  | concentration not given, 16 h |  | protein level | increased
CC[C@H](C)[C@H](NC(=O)[C@H](C)NC(=O)[C@H](CCC(=O)O)NC(=O)[C@H](CCC(=O)O)NC(=O)[C@H](CC(C)C)NC(=O)[C@H](CCCCN)NC(=O)[C@H](CCCCN)NC(=O)[C@H](CCSC)NC(=O)[C@H](CCC(=O)O)NC(=O)[C@H](Cc1ccc(O)cc1)NC(=O)[C@H](CCC(=O)O)NC(=O)[C@H](CC(C)C)NC(=O)[C@H](CC(=O)O)NC(=O)[C@H](CC(C)C)NC(=O)[C@H](Cc1ccccc1)NC(=O)[C@H](Cc1ccccc1)NC(=O)[C@@H](NC(=O)[C@H](CC(N)=O)NC(=O)[C@@H](NC(=O)[C@H](CCC(N)=O)NC(=O)[C@H](CC(=O)O)NC(=O)[C@H](CC(C)C)NC(=O)[C@@H](N)CO)[C@@H](C)CC)C(C)C)C(=O)N[C@@H](CCCCN)C(=O)N[C@@H](CCCCN)C(=O)N[C@@H](CC(C)C)C(=O)N[C@@H](CCC(=O)O)C(=O)N[C@@H](CCC(=O)O)C(=O)N[C@@H](C)C(=O)N[C@@H](Cc1ccc(O)cc1)C(=O)N[C@H](C(=O)N[C@@H](CC(=O)O)C(=O)N[C@@H](CC(C)C)C(=O)N[C@@H](CCCCN)C(=O)N[C@@H](CCC(=O)O)C(=O)N[C@@H](CC(C)C)C(=O)O)[C@@H](C)CC | SARS-CoV-2 JN.1 pseudovirus | pseudovirus infection, inhibitor, luciferase | Caco-2 | 24 h, dual mutations |  | IC50 | 562 nM
O=C(NC1CCN(c2ncnc3[nH]cnc23)CC1)c1cccc(NS(=O)(=O)c2ccc([N+](=O)[O-])cc2)c1 | SARS-CoV-2 |  | Wuhan-Hu-1 | 22.22 µM | reference: untreated infected cells | relative infection | 22.2%
CC[C@H](C)[C@H](NC(=O)[C@H](C)NC(=O)[C@H](CCC(=O)O)NC(=O)[C@H](CCC(=O)O)NC(=O)[C@H](CC(C)C)NC(=O)[C@H](CCCCN)NC(=O)[C@H](CCCCN)NC(=O)[C@H](CCSC)NC(=O)[C@H](CCC(=O)O)NC(=O)[C@H](Cc1ccc(O)cc1)NC(=O)[C@H](CCC(=O)O)NC(=O)[C@H](CC(C)C)NC(=O)[C@H](CC(=O)O)NC(=O)[C@H](CC(C)C)NC(=O)[C@H](Cc1ccccc1)NC(=O)[C@@H](NC(=O)[C@@H](NC(=O)[C@H](CC(N)=O)NC(=O)[C@@H](NC(=O)[C@H](CCC(N)=O)NC(=O)[C@H](CC(=O)O)NC(=O)[C@H](CC(C)C)NC(=O)[C@@H](N)CO)[C@@H](C)CC)C(C)C)[C@@H](C)O)C(=O)N[C@@H](CCCCN)C(=O)N[C@@H](CCCCN)C(=O)N[C@@H](CC(C)C)C(=O)N[C@@H](CCC(=O)O)C(=O)N[C@@H](CCC(=O)O)C(=O)N[C@@H](CO)C(=O)N[C@@H](Cc1ccc(O)cc1)C(=O)N[C@H](C(=O)N[C@@H](CC(=O)O)C(=O)N[C@@H](CC(C)C)C(=O)N[C@@H](CCCCN)C(=O)N[C@@H](CCC(=O)O)C(=O)N[C@@H](CC(C)C)C(=O)O)[C@@H](C)CC | SARS-CoV-2 Beta pseudovirus | pseudovirus infection, inhibitor, luciferase | Caco-2 | 24 h |  | IC50 | 1320 nM
O=C(NC1CCN(c2ncnc3[nH]cnc23)CC1)c1cccc(S(=O)(=O)Nc2ccc(Cl)cc2)c1 | SARS-CoV-2 |  | Wuhan-Hu-1 | 22.22 µM | reference: untreated infected cells | relative infection | 27.7%
Nc1ccc([As]=O)cc1 (stereo not shown) | DLD-1 | cell viability, MTS |  |  |  | IC50 | 2170 ± 210 nM
COc1ccc(S(=O)(=O)Nc2cccc(C(=O)NC3CCN(c4ncnc5[nH]cnc45)CC3)c2)cc1 | SARS-CoV-2 |  | Wuhan-Hu-1 | 0.823 µM | reference: untreated infected cells | relative infection | 60.1%
CC[C@H](C)[C@H](NC(=O)[C@H](C)NC(=O)[C@H](CCC(=O)O)NC(=O)[C@H](CCC(=O)O)NC(=O)[C@H](CC(C)C)NC(=O)[C@H](CCCCN)NC(=O)[C@H](CCCCN)NC(=O)[C@H](CCSC)NC(=O)[C@H](CCC(=O)O)NC(=O)[C@H](Cc1ccc(O)cc1)NC(=O)[C@H](CCC(=O)O)NC(=O)[C@H](CC(C)C)NC(=O)[C@H](CC(=O)O)NC(=O)[C@H](CC(C)C)NC(=O)[C@H](Cc1ccccc1)NC(=O)[C@H](Cc1ccc(O)cc1)NC(=O)[C@@H](NC(=O)[C@H](CC(N)=O)NC(=O)[C@@H](NC(=O)[C@H](CCC(N)=O)NC(=O)[C@H](CC(=O)O)NC(=O)[C@H](CC(C)C)NC(=O)[C@@H](N)CO)[C@@H](C)CC)C(C)C)C(=O)N[C@@H](CCCCN)C(=O)N[C@@H](CCCCN)C(=O)N[C@@H](CC(C)C)C(=O)N[C@@H](CCC(=O)O)C(=O)N[C@@H](CCC(=O)O)C(=O)N[C@@H](CO)C(=O)N[C@@H](Cc1ccc(O)cc1)C(=O)N[C@H](C(=O)N[C@@H](CC(=O)O)C(=O)N[C@@H](CC(C)C)C(=O)N[C@@H](CCCCN)C(=O)N[C@@H](CCC(=O)O)C(=O)N[C@@H](CC(C)C)C(=O)O)[C@@H](C)CC | SARS-CoV-2 XBB.1.5 pseudovirus | pseudovirus infection, inhibitor, luciferase | Caco-2 | 24 h |  | IC50 | 185 nM
CC(C)[C@H]1CC[C@@H](N2CCC3(CC2)C(=O)NCN3c2ccccc2)CC1 |  | twitch contraction | mouse, mouse vas deferens |  | reference: compound over N/OFQ EC50 | concentration ratio | 1.7
O=[N+]([O-])c1cc([As](O)O)ccc1O | HCC1569 | cell viability |  | 72 h |  | IC50 | 9000 nM
CC[C@H](C)[C@H](NC(=O)[C@H](C)NC(=O)[C@H](CCC(=O)O)NC(=O)[C@H](CCC(=O)O)NC(=O)[C@H](CC(C)C)NC(=O)[C@H](CCCCN)NC(=O)[C@H](CCCCN)NC(=O)[C@H](CCSC)NC(=O)[C@H](CCC(=O)O)NC(=O)[C@H](Cc1ccc(O)cc1)NC(=O)[C@H](CCC(=O)O)NC(=O)[C@H](CC(C)C)NC(=O)[C@H](CC(=O)O)NC(=O)[C@H](CC(C)C)NC(=O)[C@H](Cc1ccccc1)NC(=O)[C@@H](NC(=O)[C@@H](NC(=O)[C@H](CC(N)=O)NC(=O)[C@@H](NC(=O)[C@H](CCC(N)=O)NC(=O)[C@H](CC(=O)O)NC(=O)[C@H](CC(C)C)NC(=O)[C@H](CO)NC(=O)[C@H](CC(C)C)NC(=O)[C@H](CC(=O)O)NC(=O)[C@@H]1CCCN1C(=O)[C@H](C)N)[C@@H](C)CC)C(C)C)[C@@H](C)O)C(=O)N[C@@H](CCCCN)C(=O)N[C@@H](CCCCN)C(=O)N[C@@H](CC(C)C)C(=O)N[C@@H](CCC(=O)O)C(=O)N[C@@H](CCC(=O)O)C(=O)N[C@@H](CO)C(=O)N[C@@H](Cc1ccc(O)cc1)C(=O)N[C@H](C(=O)N[C@@H](CC(=O)O)C(=O)N[C@@H](CC(C)C)C(=O)N[C@@H](CCCCN)C(=O)N[C@@H](CCC(=O)O)C(=O)N[C@@H](CC(C)C)C(=O)O)[C@@H](C)CC | SARS-CoV-2 Gamma pseudovirus | pseudovirus infection, inhibitor, luciferase | Caco-2 | 24 h |  | IC50 | 432 nM
Cc1ccc(S(=O)(=O)Nc2cccc(C(=O)NC3CCN(c4ncnc5[nH]cnc45)CC3)c2)cc1 | monkeypox virus E1/E12 |  |  | 50 µM |  | inhibition | 16.3% and 17%
Cc1cc(C(=O)N[C@@H](Cc2cccc3ccccc23)C(=O)N[C@@H](CC(C)C)C(=O)N[C@H](C=O)C[C@@H]2CCCNC2=O)no1 | Enterovirus A71 | viral replication, RT-qPCR | RD | three days |  | EC50 | 10 ± 10 nM
CC(C)C[C@@H]1NC(=O)[C@H](CCCCN)NC(=O)[C@H](Cc2ccc(O)cc2)NC(=O)CNC(=O)[C@@H]2CSSC[C@H](NC1=O)C(=O)N[C@@H](Cc1ccccc1)C(=O)N1C[C@H](O)C[C@H]1C(=O)N[C@H](C(N)=O)CSSC[C@H](NC(=O)[C@@H](NC(=O)[C@@H](N)CO)C(C)C)C(=O)N2 |  | behavioural effects | Aplysia californica | injection, 10 nmol |  | onset of symptoms | ~5 min

A few entries again:
Structure (SMILES) | target or system | assay | test system | setting | scale | quantity | value
Nc1ccc([As]=O)cc1 (stereo not shown) | DLD-1 | cell viability, MTS |  |  |  | IC50 | 2170 ± 210 nM
COc1ccc(S(=O)(=O)Nc2cccc(C(=O)NC3CCN(c4ncnc5[nH]cnc45)CC3)c2)cc1 | SARS-CoV-2 |  | Wuhan-Hu-1 | 0.823 µM | reference: untreated infected cells | relative infection | 60.1%
CC[C@H](C)[C@H](NC(=O)[C@H](C)NC(=O)[C@H](CCC(=O)O)NC(=O)[C@H](CCC(=O)O)NC(=O)[C@H](CC(C)C)NC(=O)[C@H](CCCCN)NC(=O)[C@H](CCCCN)NC(=O)[C@H](CCSC)NC(=O)[C@H](CCC(=O)O)NC(=O)[C@H](Cc1ccc(O)cc1)NC(=O)[C@H](CCC(=O)O)NC(=O)[C@H](CC(C)C)NC(=O)[C@H](CC(=O)O)NC(=O)[C@H](CC(C)C)NC(=O)[C@H](Cc1ccccc1)NC(=O)[C@H](Cc1ccc(O)cc1)NC(=O)[C@@H](NC(=O)[C@H](CC(N)=O)NC(=O)[C@@H](NC(=O)[C@H](CCC(N)=O)NC(=O)[C@H](CC(=O)O)NC(=O)[C@H](CC(C)C)NC(=O)[C@@H](N)CO)[C@@H](C)CC)C(C)C)C(=O)N[C@@H](CCCCN)C(=O)N[C@@H](CCCCN)C(=O)N[C@@H](CC(C)C)C(=O)N[C@@H](CCC(=O)O)C(=O)N[C@@H](CCC(=O)O)C(=O)N[C@@H](CO)C(=O)N[C@@H](Cc1ccc(O)cc1)C(=O)N[C@H](C(=O)N[C@@H](CC(=O)O)C(=O)N[C@@H](CC(C)C)C(=O)N[C@@H](CCCCN)C(=O)N[C@@H](CCC(=O)O)C(=O)N[C@@H](CC(C)C)C(=O)O)[C@@H](C)CC | SARS-CoV-2 XBB.1.5 pseudovirus | pseudovirus infection, inhibitor, luciferase | Caco-2 | 24 h |  | IC50 | 185 nM
